Experimental data gathered from unrelated publications.
Every numbered part comes from another study and shows a few of its results, in no order. Several values in a cell are separate wells, animals, samples, runs or records.
UniProt O15197, sequence (whole entry, looked up): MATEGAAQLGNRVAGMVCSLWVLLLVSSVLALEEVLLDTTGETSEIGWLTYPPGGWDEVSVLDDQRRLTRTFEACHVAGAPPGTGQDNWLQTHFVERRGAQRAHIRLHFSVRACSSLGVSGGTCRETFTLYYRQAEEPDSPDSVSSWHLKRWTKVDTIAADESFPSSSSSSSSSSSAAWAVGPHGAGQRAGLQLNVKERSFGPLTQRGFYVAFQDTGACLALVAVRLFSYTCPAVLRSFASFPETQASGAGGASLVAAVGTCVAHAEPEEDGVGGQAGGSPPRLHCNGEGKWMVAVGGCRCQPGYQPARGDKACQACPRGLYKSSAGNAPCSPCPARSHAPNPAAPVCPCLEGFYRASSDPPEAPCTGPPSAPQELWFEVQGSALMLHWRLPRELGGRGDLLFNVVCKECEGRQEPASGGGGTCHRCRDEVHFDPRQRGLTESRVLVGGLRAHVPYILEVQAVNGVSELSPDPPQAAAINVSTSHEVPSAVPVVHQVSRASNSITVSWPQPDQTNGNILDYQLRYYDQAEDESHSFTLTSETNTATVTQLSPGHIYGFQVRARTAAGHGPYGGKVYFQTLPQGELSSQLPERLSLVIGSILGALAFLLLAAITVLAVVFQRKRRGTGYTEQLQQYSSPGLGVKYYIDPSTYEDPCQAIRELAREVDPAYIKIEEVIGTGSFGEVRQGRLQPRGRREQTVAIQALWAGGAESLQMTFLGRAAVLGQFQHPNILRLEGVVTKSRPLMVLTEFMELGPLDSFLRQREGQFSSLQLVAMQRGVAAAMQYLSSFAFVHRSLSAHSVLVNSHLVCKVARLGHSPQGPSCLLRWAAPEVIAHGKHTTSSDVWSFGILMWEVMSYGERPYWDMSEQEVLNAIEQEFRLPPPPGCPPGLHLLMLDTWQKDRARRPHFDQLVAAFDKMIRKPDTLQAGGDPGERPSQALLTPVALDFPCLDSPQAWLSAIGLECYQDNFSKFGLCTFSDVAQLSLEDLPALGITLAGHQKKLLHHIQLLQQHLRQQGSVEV
UniProt P04049, sequence (whole entry, looked up): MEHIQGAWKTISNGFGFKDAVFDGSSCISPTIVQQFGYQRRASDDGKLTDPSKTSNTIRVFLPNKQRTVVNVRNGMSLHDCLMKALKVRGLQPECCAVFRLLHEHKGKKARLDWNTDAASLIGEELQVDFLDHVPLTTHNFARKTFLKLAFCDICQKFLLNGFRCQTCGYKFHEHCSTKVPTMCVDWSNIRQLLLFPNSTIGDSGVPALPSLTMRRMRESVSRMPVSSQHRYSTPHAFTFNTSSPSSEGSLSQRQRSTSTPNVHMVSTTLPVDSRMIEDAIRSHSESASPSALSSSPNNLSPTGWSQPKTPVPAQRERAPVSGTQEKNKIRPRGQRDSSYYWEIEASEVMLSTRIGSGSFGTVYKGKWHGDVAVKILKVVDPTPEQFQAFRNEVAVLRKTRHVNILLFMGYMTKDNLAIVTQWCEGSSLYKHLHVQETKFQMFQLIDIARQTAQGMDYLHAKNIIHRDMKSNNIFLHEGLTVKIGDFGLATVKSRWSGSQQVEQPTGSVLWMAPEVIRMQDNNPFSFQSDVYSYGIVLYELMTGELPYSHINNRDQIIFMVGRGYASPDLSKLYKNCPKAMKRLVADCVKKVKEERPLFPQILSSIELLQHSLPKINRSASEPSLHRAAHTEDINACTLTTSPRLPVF
UniProt Q13188, sequence (whole entry, looked up): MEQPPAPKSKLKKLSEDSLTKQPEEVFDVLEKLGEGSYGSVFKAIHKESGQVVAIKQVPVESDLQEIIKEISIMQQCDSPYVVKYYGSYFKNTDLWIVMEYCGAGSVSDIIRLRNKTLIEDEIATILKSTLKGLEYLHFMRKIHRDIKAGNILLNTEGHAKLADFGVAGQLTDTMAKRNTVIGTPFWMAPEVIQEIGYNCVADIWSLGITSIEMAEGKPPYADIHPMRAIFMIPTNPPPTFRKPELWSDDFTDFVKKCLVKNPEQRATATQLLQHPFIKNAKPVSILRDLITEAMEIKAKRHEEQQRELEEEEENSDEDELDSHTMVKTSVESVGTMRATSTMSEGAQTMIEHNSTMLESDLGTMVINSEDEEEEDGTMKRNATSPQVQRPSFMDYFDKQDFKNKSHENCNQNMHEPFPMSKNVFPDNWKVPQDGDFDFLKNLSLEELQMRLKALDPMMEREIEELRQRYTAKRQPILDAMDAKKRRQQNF
UniProt Q13043, sequence (whole entry, looked up): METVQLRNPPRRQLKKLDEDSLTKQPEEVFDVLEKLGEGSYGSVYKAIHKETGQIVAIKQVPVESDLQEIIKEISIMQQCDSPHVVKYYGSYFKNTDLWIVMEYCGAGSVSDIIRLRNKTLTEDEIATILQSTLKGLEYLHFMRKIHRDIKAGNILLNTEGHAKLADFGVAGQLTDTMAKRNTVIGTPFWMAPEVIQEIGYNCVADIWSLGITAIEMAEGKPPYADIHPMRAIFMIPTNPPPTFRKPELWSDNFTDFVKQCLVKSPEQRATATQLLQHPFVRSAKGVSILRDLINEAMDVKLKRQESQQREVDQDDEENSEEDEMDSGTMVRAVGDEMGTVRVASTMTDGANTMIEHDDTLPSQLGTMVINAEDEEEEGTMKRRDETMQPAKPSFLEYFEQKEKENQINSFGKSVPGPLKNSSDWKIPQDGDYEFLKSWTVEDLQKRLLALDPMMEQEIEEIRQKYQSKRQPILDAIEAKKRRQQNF
UniProt Q99558, sequence (whole entry, looked up): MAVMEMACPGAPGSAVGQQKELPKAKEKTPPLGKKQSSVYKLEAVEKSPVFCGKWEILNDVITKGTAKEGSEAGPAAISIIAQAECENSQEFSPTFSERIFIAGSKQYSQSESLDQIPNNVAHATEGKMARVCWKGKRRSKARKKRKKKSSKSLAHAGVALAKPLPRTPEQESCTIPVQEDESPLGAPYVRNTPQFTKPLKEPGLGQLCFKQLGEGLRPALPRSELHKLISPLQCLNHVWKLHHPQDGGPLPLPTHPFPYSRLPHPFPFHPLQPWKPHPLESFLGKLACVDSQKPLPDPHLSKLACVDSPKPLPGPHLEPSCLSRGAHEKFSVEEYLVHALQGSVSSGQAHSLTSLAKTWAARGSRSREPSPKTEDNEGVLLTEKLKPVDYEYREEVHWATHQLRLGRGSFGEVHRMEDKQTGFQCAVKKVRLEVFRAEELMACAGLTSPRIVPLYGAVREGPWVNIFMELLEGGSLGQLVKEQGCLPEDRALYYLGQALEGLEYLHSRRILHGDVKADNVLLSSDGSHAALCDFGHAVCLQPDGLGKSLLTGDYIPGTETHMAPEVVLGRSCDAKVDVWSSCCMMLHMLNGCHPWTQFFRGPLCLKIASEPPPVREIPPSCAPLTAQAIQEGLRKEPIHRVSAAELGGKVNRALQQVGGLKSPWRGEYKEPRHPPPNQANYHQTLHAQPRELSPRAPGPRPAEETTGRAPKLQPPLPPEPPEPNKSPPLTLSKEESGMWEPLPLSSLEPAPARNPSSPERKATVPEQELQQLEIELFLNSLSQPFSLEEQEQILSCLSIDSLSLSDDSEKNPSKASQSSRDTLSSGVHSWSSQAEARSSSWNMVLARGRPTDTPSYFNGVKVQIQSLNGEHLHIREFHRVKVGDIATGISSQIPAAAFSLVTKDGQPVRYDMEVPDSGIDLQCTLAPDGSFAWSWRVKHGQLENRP
UniProt P11802, sequence (whole entry, looked up): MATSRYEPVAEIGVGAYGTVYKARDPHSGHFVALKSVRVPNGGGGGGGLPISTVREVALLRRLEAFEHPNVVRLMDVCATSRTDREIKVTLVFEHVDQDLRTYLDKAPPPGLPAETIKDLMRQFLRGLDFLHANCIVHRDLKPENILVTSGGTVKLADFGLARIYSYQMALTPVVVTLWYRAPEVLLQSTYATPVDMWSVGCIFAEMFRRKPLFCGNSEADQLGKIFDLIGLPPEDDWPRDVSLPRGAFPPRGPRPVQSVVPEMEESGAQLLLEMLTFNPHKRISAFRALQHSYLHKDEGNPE

Block 1
Structure (SMILES): O=C(O)[C@H]1[C@H](Cn2nnc3ccccc3c2=O)CC[C@@H]1C(=O)c1ccc(OCCC2CCOCC2)cc1
Tested at: 1 µM
Quantity: remaining binding
AP2-associated protein kinase 1 (AAK1, Homo sapiens, UniProt Q2M2I8); binding: 78%
Proto-oncogene tyrosine-protein kinase Src (SRC, Homo sapiens, UniProt P12931); cell-free assay, competition with immobilised ligand: 89%
Ephrin type-A receptor 2 (EPHA2, Homo sapiens, UniProt P29317); cell-free assay, competition with immobilised ligand: 93%
Leucine-rich repeat serine/threonine-protein kinase 2 (LRRK2, Homo sapiens, UniProt Q5S007); cell-free assay, competition with immobilised ligand: 90%
Serine/threonine-protein kinase 3 (STK3, Homo sapiens, UniProt Q13188); cell-free assay, competition with immobilised ligand: 91%
Serine/threonine-protein kinase 4 (STK4, Homo sapiens, UniProt Q13043); cell-free assay, competition with immobilised ligand: 98%
Mitogen-activated protein kinase kinase kinase 14 (MAP3K14, Homo sapiens, UniProt Q99558); cell-free assay, competition with immobilised ligand: 85%
Ephrin type-B receptor 6 (EPHB6, Homo sapiens, UniProt O15197); cell-free assay, competition with immobilised ligand: 89%
Receptor-type tyrosine-protein kinase FLT3 (FLT3, Homo sapiens, UniProt P36888, F691L/ITD); cell-free assay, competition with immobilised ligand: 93%
Receptor-type tyrosine-protein kinase FLT3, autoinhibited (FLT3, Homo sapiens, UniProt P36888); cell-free assay, competition with immobilised ligand: 96%
Citron Rho-interacting kinase (CIT, Homo sapiens, UniProt O14578); cell-free assay, competition with immobilised ligand: 77%
Tyrosine-protein kinase Fyn (FYN, Homo sapiens, UniProt P06241); cell-free assay, competition with immobilised ligand: 100%
Cyclin-dependent kinase 11A (CDK11A, Homo sapiens, UniProt Q9UQ88); binding, competition with immobilised ligand: 92%
RAF proto-oncogene serine/threonine-protein kinase (RAF1, Homo sapiens, UniProt P04049); cell-free assay, competition with immobilised ligand: 91%
Cyclin-dependent kinase 4, with cyclin D1 (CDK4, Homo sapiens, UniProt P11802); cell-free assay, competition with immobilised ligand: 89%
Tyrosine-protein kinase ABL1, phosphorylated (ABL1, Homo sapiens, UniProt P00519); cell-free assay, competition with immobilised ligand: 89%
Tyrosine-protein kinase Lyn (LYN, Homo sapiens, UniProt P07948); cell-free assay, competition with immobilised ligand: 92%

Block 2
Effect on: AlphaScreen signal
Technique: AlphaScreen counter screen
Matrix: His6 peptide without bromodomain
Tested at: 50 µM
Notes: assay interference check
Quantity: inhibition
O=C1NCCc2[nH]c(-c3ccnc(-c4cnc5ccccc5c4)c3)cc21: 15.8%
CC(C)[C@H](CO)Nc1nc(Nc2cccc(Cl)c2)c2ncn(C(C)C)c2n1: 49.1%
Nc1cc2ncnc(Nc3cccc(Br)c3)c2cc1N: 62.5%
NC(=O)CSc1ccc2nnc(-c3cccc(F)c3)n2n1: 4.3%

Block 3
Species: mouse
Matrix: microsomes or S9
Tested at: 2 µM
Time: 0.5 h
Quantity: remaining compound
CCCc1nc2c(c(C)c(C)n2Cc2ccncc2)c(N)c1CC: 5.19%
O=C(Cc1cc(Br)ccc1F)OCCNC(=O)c1cccnc1: 1.81%
CC(C)[C@@H](Oc1ccc(NC(=O)C2CC=NN2C(=O)C[C@H](N)Cc2cc(F)c(F)cc2F)cc1)C(=O)O (stereo partly shown): 85.4%

Block 4
Cell line: A-375
Tested at: 100 µM
Time: 36 h
Quantity: viability
OC1(c2ccc(Cl)c(C(F)(F)F)c2)CCN(CCCC(c2ccc(F)cc2)c2ccc(F)cc2)CC1: -0.743%
CCCSc1nc(N[C@@H]2C[C@H]2c2ccc(F)c(F)c2)c2nnn([C@@H]3C[C@H](OCCO)[C@@H](O)[C@H]3O)c2n1: -2.03%
CC(C)(C)NCC(O)COc1cccc2c1CCC(=O)N2 (stereo not shown): 97.2%

Block 5
Cell line: mouse MPNST tumor cells
Technique: high-content nuclear imaging
Item: cell number
Tested at: 10 µM
Time: 12 h
Notes: mean of 2 replicates
Relative to: plate mean
Direction: higher = more cells
Quantity: nuclei count
CN[C@H]1CC[C@@H](c2ccc(Cl)c(Cl)c2)c2ccccc21: 0.305 z-score and -4.38 z-score
CN(C)CCOC(c1ccc(Cl)cc1)c1ccccn1 (stereo not shown): 2.9 z-score
O=C(Nc1ccc(Cl)c(Cl)c1)Nc1ccc(Cl)c(Cl)c1: 0.714 z-score

Block 6
Cell line: Huh-7
Tested at: 10 µM
Time: 24 h
Quantity: viability
CCn1cc(C(=O)O)c(=O)c2cc(F)c(N3CCNCC3)nc21: 102%
CC[C@H]1OC(=O)C[C@@H](O)[C@H](C)[C@@H](O[C@@H]2O[C@H](C)[C@@H](O[C@H]3C[C@@](C)(O)[C@@H](O)[C@H](C)O3)[C@H](N(C)C)[C@H]2O)[C@@H](CC=O)C[C@@H](C)C(=O)/C=C/C(C)=C/[C@@H]1CO[C@@H]1O[C@H](C)[C@@H](O)[C@@H](OC)[C@H]1OC: 102%
NC[C@H]1O[C@H](O[C@H]2[C@H](O)[C@@H](O[C@H]3O[C@H](CO)[C@@H](O)[C@H](N)[C@H]3O)[C@H](N)C[C@@H]2N)[C@H](O)[C@@H](O)[C@@H]1O: 100%
CC1=C(/C=C/C(C)=C/C=C/C(C)=C\C(=O)O)C(C)(C)CCC1: 102%
